Experimental data of several laboratories.
Protocols differ between the studies behind these lines. Converted amounts (≈) assume the structure as drawn.
Organism: Staphylococcus epidermidis

SMILES | assay | system | setting | quantity | result
C[C@@H](O)[C@H](NC(=O)[C@H](Cc1c[nH]c2ccccc12)NC(=O)[C@H](Cc1c[nH]c2ccccc12)NC(=O)[C@H](Cc1c[nH]c2ccccc12)NC(=O)[C@@H](NC(=O)[C@H](Cc1c[nH]c2ccccc12)NC(=O)[C@H](CCCNC(=N)N)NC(=O)[C@@H](N)CCCNC(=N)N)[C@@H](C)O)C(=O)N[C@@H](Cc1c[nH]c2ccccc12)C(=O)N[C@@H](CCCNC(=N)N)C(=O)N[C@@H](CCCNC(=N)N)C(N)=O | broth microdilution | 12228, Mueller-Hinton broth | 24 h, 37 °C, lowest concentration, 95% inhibition, with: BSA | MIC | 2 µM
CC[C@H](C)[C@H](NC(=O)[C@H](Cc1ccc(O)cc1)NC(=O)[C@@H](NC(=O)[C@@H]1CCCN1C(=O)[C@H](CCCNC(=N)N)NC(=O)[C@H](CC(N)=O)NC(=O)[C@H](CC(N)=O)NC(=O)CN)C(C)C)C(=O)N1CCC[C@H]1C(=O)N[C@@H](CCC(N)=O)C(=O)N1CCC[C@H]1C(=O)N[C@@H](CCCNC(=N)N)C(=O)N1CCC[C@H]1C(=O)N1CCC[C@H]1C(=O)N[C@@H](Cc1c[nH]cn1)C(=O)N1CCC[C@H]1C(=O)N[C@@H](CCCNC(=N)N)C(=O)N[C@@H](CC(C)C)C(=O)O | broth dilution | ATCC 51625 | 18 h, 37 °C | MIC | 304 µM
C[C@@H](O)[C@H](NC(=O)[C@H](Cc1ccccc1)NC(=O)[C@H](Cc1c[nH]c2ccccc12)NC(=O)[C@H](Cc1ccccc1)NC(=O)[C@@H](NC(=O)[C@H](Cc1ccccc1)NC(=O)[C@H](CCCNC(=N)N)NC(=O)[C@@H](N)CCCNC(=N)N)[C@@H](C)O)C(=O)N[C@@H](Cc1ccccc1)C(=O)N[C@@H](CCCNC(=N)N)C(=O)N[C@@H](CCCNC(=N)N)C(N)=O | broth microdilution | 12228, Mueller-Hinton broth | 24 h, 37 °C, lowest concentration, 95% inhibition, with: BSA | MIC | 32 µM
CN[C@H](CC(C)C)C(=O)N[C@H]1C(=O)N[C@@H](CC(N)=O)C(=O)N[C@H]2C(=O)N[C@H]3C(=O)N[C@H](C(=O)N[C@H](C(=O)O)c4cc(O)cc(O)c4-c4cc3ccc4O)[C@H](O)c3ccc(c(Cl)c3)Oc3cc2cc(c3O[C@@H]2O[C@H](CO)[C@@H](O)[C@H](O)[C@H]2O[C@H]2C[C@](C)(N)[C@H](O)[C@H](C)O2)Oc2ccc(cc2Cl)[C@H]1O |  | MRSE 35984 | 24 h | MBC | 3 µM (≈ 4.35 µg/mL)
CC[C@@H](C)[C@@H](N)C(=O)N[C@@H](C(=O)N[C@H](Cc1ccc(O)cc1)C(=O)N[C@@H](C(=O)N[C@H](CCN)C(=O)N[C@H](CC(C)C)C(=O)N[C@H](CO)C(=O)N[C@H](CCN)C(=O)N[C@@H](C(=O)N[C@H](CCN)C(=O)N[C@H](Cc1c[nH]cn1)C(=O)N[C@H](CCN)C(=O)N[C@H](C)C(=O)N[C@H](CCN)C(=O)N[C@H](CCN)C(N)=O)[C@H](C)CC)[C@H](C)CC)[C@H](C)CC |  | ATCC 12228, Mueller-Hinton broth |  | MIC | 2 µg/mL
CC[C@H](C)[C@H](N)C(=O)N[C@@H](CCCNC(=N)N)C(=O)N[C@H](C(=O)N[C@@H](Cc1c[nH]c2ccccc12)C(=O)N[C@@H](Cc1ccccc1)C(=O)N[C@H](C(=O)N[C@@H](CCCCN)C(=O)N[C@H](C(=O)N[C@@H](CCCNC(=N)N)C(=O)N[C@@H](CCCCN)C(=O)N[C@@H](Cc1c[nH]c2ccccc12)C(=O)N[C@@H](CCCCN)C(=O)N[C@@H](C)C(=O)N[C@H](C(=O)N[C@@H](Cc1ccc(O)cc1)C(=O)N[C@@H](Cc1c[nH]cn1)C(=O)N[C@H](C(N)=O)[C@@H](C)O)[C@@H](C)CC)C(C)C)[C@@H](C)CC)C(C)C | broth dilution | KCTC 1917 |  | MIC | 50 µM
CC[C@H](C)[C@H](NC(=O)[C@H](CCCCN)NC(=O)[C@@H](NC(=O)[C@H](Cc1ccc(O)cc1)NC(=O)[C@H](CCCCN)NC(=O)[C@H](CCCCN)NC(=O)CNC(=O)[C@H](CCCCN)NC(=O)[C@@H](NC(=O)[C@H](C)NC(=O)[C@H](CC(C)C)NC(=O)[C@H](Cc1c[nH]c2ccccc12)NC(=O)CNC(=O)[C@@H](NC(=O)[C@H](Cc1ccccc1)NC(=O)[C@H](CCCCN)NC(=O)[C@H](CC(C)C)NC(=O)[C@H](Cc1ccccc1)NC(=O)[C@H](C)NC(=O)CNC(=O)[C@@H](N)CCSC)C(C)C)[C@@H](C)O)C(C)C)C(=O)N[C@@H](C)C(=O)N[C@@H](Cc1c[nH]c2ccccc12)C(=O)N[C@@H](CC(=O)O)C(=O)N[C@@H](Cc1c[nH]cn1)C(=O)N[C@@H](CCCCN)C(=O)NCC(=O)N[C@H](C(=O)N[C@H](C(=O)N[C@@H](CCSC)C(=O)N[C@@H](CCCCN)C(=O)N[C@@H](Cc1c[nH]c2ccccc12)C(=O)N[C@@H](CC(C)C)C(=O)N[C@@H](CC(N)=O)C(=O)N[C@@H](C)C(=O)NCC(=O)N[C@@H](CCC(N)=O)C(=O)N[C@H](C(=O)N[C@@H](Cc1ccccc1)C(=O)N[C@H](C(=O)N[C@@H](Cc1c[nH]c2ccccc12)C(=O)N[C@H](C(=O)N[C@@H](Cc1ccc(O)cc1)C(=O)N[C@@H](CCC(=O)O)C(=O)N[C@@H](CCC(N)=O)C(=O)N[C@H](C(=O)N[C@@H](CCCCN)C(=O)N[C@@H](CCCCN)C(=O)N[C@@H](CC(C)C)C(=O)N[C@@H](Cc1c[nH]c2ccccc12)C(=O)N[C@H](C(=O)O)[C@@H](C)O)[C@@H](C)CC)C(C)C)[C@@H](C)O)[C@@H](C)O)[C@@H](C)CC)[C@@H](C)O | broth microdilution |  | 37 °C | MIC | 15.6 µg/mL
CC[C@H](C)[C@H](N)C(=O)N[C@@H](CCCNC(=N)N)C(=O)N[C@H](C(=O)N[C@@H](Cc1c[nH]c2ccccc12)C(=O)N[C@@H](Cc1c[nH]c2ccccc12)C(=O)N[C@@H](CCCCN)C(=O)N[C@H](C(=O)N[C@H](C(=O)N[C@@H](CCCNC(=N)N)C(=O)N[C@@H](CCCCN)C(=O)N[C@@H](Cc1c[nH]c2ccccc12)C(=O)N[C@@H](CCCCN)C(=O)N[C@@H](C)C(=O)N[C@H](C(=O)N[C@@H](Cc1c[nH]c2ccccc12)C(=O)N[C@@H](Cc1c[nH]cn1)C(N)=O)[C@@H](C)CC)C(C)C)[C@@H](C)CC)C(C)C | broth dilution | KCTC 1917 |  | MIC | 12.5 µM
CC[C@H](C)[C@H](NC(=O)CN)C(=O)NCC(=O)N[C@@H](CCCCN)C(=O)N[C@@H](Cc1ccccc1)C(=O)N[C@@H](CC(C)C)C(=O)N[C@@H](Cc1c[nH]cn1)C(=O)N[C@@H](CO)C(=O)N[C@@H](C)C(=O)N[C@@H](CCCCN)C(=O)N[C@@H](CCCCN)C(=O)N[C@@H](Cc1ccccc1)C(=O)NCC(=O)N[C@@H](CCCCN)C(=O)N[C@@H](C)C(=O)N[C@@H](Cc1ccccc1)C(=O)N[C@H](C(=O)NCC(=O)N[C@@H](CCC(=O)O)C(=O)N[C@H](C(=O)N[C@@H](CCSC)C(=O)N[C@@H](CC(N)=O)C(=O)N[C@@H](CO)C(N)=O)[C@@H](C)CC)C(C)C | broth dilution | ATCC 51625 | 18 h, 37 °C | MIC | 64.9 µM
CC(C)C[C@H](NC(=O)[C@@H](NC(=O)[C@H](CCCNC(=N)N)NC(=O)[C@H](CCC(N)=O)NC(=O)[C@H](Cc1ccccc1)NC(=O)[C@H](Cc1ccc(O)cc1)NC(=O)[C@H](CC(N)=O)NC(=O)[C@H](Cc1c[nH]c2ccccc12)NC(=O)[C@@H](NC(=O)[C@H](CCCNC(=N)N)NC(=O)[C@H](CCCCN)NC(=O)[C@@H](N)Cc1ccccc1)C(C)C)C(C)C)C(=O)N[C@H](C(=O)N[C@@H](CCCCN)C(=O)N[C@@H](CCCCN)C(=O)N[C@@H](Cc1ccc(O)cc1)C(=O)N[C@@H](C)C(N)=O)C(C)C | broth dilution | KCTC 1917 |  | MIC | 50 µM
CC[C@H](C)[C@H](N)C(=O)N[C@@H](CC(C)C)C(=O)N1CCC[C@H]1C(=O)N[C@@H](Cc1c[nH]c2ccccc12)C(=O)N[C@@H](CCCCN)C(=O)N[C@@H](Cc1c[nH]c2ccccc12)C(=O)N1CCC[C@H]1C(=O)N[C@@H](Cc1c[nH]c2ccccc12)C(=O)N[C@@H](Cc1c[nH]c2ccccc12)C(=O)N1CCC[C@H]1C(=O)N[C@@H](Cc1c[nH]c2ccccc12)C(=O)N[C@@H](CCCNC(=N)N)C(=O)N[C@@H](CCCNC(=N)N)C(N)=O | broth dilution | ATCC 51625 | 18 h, 37 °C | MIC | 10.5 µM
CC(C)C[C@H](NC(=O)[C@@H](NC(=O)[C@H](CCCNC(=N)N)NC(=O)[C@H](CCC(N)=O)NC(=O)[C@H](Cc1ccccc1)NC(=O)[C@H](Cc1ccc(O)cc1)NC(=O)[C@H](CC(N)=O)NC(=O)[C@H](Cc1c[nH]c2ccccc12)NC(=O)[C@@H](NC(=O)[C@H](CCCNC(=N)N)NC(=O)[C@H](CCCCN)NC(=O)[C@@H](N)Cc1ccccc1)C(C)C)C(C)C)C(=O)N[C@H](C(=O)N[C@@H](CCCCN)C(=O)N[C@@H](CCCCN)C(N)=O)C(C)C | broth dilution | KCTC 1917 |  | MIC | > 100 µM
CN[C@H](CC(C)C)C(=O)N[C@H]1C(=O)N[C@@H](CC(N)=O)C(=O)N[C@H]2C(=O)N[C@H]3C(=O)N[C@H](C(=O)N[C@H](C(=O)O)c4cc(O)cc(O)c4-c4cc3ccc4O)[C@H](O)c3ccc(c(Cl)c3)Oc3cc2cc(c3O[C@@H]2O[C@H](CO)[C@@H](O)[C@H](O)[C@H]2O[C@H]2C[C@](C)(N)[C@H](O)[C@H](C)O2)Oc2ccc(cc2Cl)[C@H]1O |  | MRSE 35984 |  | MIC | 1.17 µM

Excerpt of the above:
SMILES | assay | system | setting | quantity | result
CC[C@H](C)[C@H](NC(=O)CN)C(=O)NCC(=O)N[C@@H](CCCCN)C(=O)N[C@@H](Cc1ccccc1)C(=O)N[C@@H](CC(C)C)C(=O)N[C@@H](Cc1c[nH]cn1)C(=O)N[C@@H](CO)C(=O)N[C@@H](C)C(=O)N[C@@H](CCCCN)C(=O)N[C@@H](CCCCN)C(=O)N[C@@H](Cc1ccccc1)C(=O)NCC(=O)N[C@@H](CCCCN)C(=O)N[C@@H](C)C(=O)N[C@@H](Cc1ccccc1)C(=O)N[C@H](C(=O)NCC(=O)N[C@@H](CCC(=O)O)C(=O)N[C@H](C(=O)N[C@@H](CCSC)C(=O)N[C@@H](CC(N)=O)C(=O)N[C@@H](CO)C(N)=O)[C@@H](C)CC)C(C)C | broth dilution | ATCC 51625 | 18 h, 37 °C | MIC | 64.9 µM
CC[C@H](C)[C@H](N)C(=O)N[C@@H](CC(C)C)C(=O)N1CCC[C@H]1C(=O)N[C@@H](Cc1c[nH]c2ccccc12)C(=O)N[C@@H](CCCCN)C(=O)N[C@@H](Cc1c[nH]c2ccccc12)C(=O)N1CCC[C@H]1C(=O)N[C@@H](Cc1c[nH]c2ccccc12)C(=O)N[C@@H](Cc1c[nH]c2ccccc12)C(=O)N1CCC[C@H]1C(=O)N[C@@H](Cc1c[nH]c2ccccc12)C(=O)N[C@@H](CCCNC(=N)N)C(=O)N[C@@H](CCCNC(=N)N)C(N)=O | broth dilution | ATCC 51625 | 18 h, 37 °C | MIC | 10.5 µM
